Experimental data collected from several papers.
Compare with care: the assays were run in different laboratories. ± gives the spread as reported.

CN1CC[C@@]23CCCC[C@@H]2[C@@H]1Cc1ccc(O)cc13 — AUC(0-t) (Wistar rat, both sexes, plasma; oral, 5 mg/kg DEM, DEM 2 h after pretreatment, added: QN 2.5 mg/kg single pretreatment): 53.9 ± 11.9 ng·h/mL
CCCCCn1cc(C(=O)c2cccc3ccccc23)c2ccccc21 — deviation from nominal (blood; 24 h, freeze-thaw and bench-top): ≤ 15%
C=C1C[C@@H]2[C@H](CC[C@]3(C)C(=O)CC[C@@H]23)[C@@]2(C)C=CC(=O)C=C12 — median plasma concentration (LC-MS/MS; postmenopausal breast cancer women, plasma; oral, 25 mg/day, 2 h, self-reported White race): 7.9 ng/mL
Cc1ncc2n1-c1ccc(Cl)cc1C(c1ccccc1F)=NC2 — AUC(0-inf) arithmetic mean (healthy men, plasma; oral, 7.5 mg, without amenamevir): 118 ng·h/mL
O=C(O)CC[C@H](NP(=O)(O)OC[C@H](NC(=O)CC[C@H](NC(=O)c1ccc([18F])cc1)C(=O)O)C(=O)O)C(=O)O — tissue uptake (ex vivo biodistribution; male NCr nude mice, LNCaP PSMA+ xenograft, all other organs except kidney; 2 h; nonspecific uptake): < 0.25 %ID/g
C#Cc1ccc2c(c1)C(c1ccccn1)=NCc1c(-c3cnco3)ncn1-2 — concentration (Sprague-Dawley rat, plasma; intraperitoneal, 10 mg/kg, 4 h, unbound): 552 nM
Cc1ncc2n1-c1ccc(Cl)cc1C(c1ccccc1F)=NC2 — AUC(0-6 h) (human, dried blood spots; dose not given, prasugrel alone session): 0.31 ng·h/mL
COc1ccsc1CNCC[C@@]1(c2ccccn2)CCOC2(CCCC2)C1 — volume of distribution (Vz) (healthy human, normal hepatic function, plasma; intravenous, 1 mg single dose, geometric mean): 126 L
CCCCCCCCCCC(=O)O[C@H]1CC[C@H]2[C@@H]3CCC4=CC(=O)CC[C@]4(C)[C@H]3CC[C@]12C — testosterone concentration (human blood; 600 ng/mL, 60 min, 4 °C, NaF 5 mg/mL, K2 oxalate 4 mg/mL): 494 ng/dL
CC(C)C[C@H](NC(=O)[C@H](C)NC(=O)[C@H](CCCCN)NC(=O)[C@H](CC(C)C)NC(=O)[C@H](C)NC(=O)[C@H](CC(C)C)NC(=O)[C@H](CCCCN)NC(=O)[C@H](CC(C)C)NC(=O)[C@H](C)NC(=O)[C@H](CC(C)C)NC(=O)[C@H](CCCCN)NC(=O)c1ccc2c(c1)C(=O)OC21c2ccc(O)cc2Oc2cc(O)ccc21)C(=O)N[C@@H](CCCCN)C(=O)N[C@@H](C)C(=O)N[C@@H](C)C(=O)N[C@@H](CC(C)C)C(=O)N[C@@H](CCCCN)C(=O)N[C@@H](CC(C)C)C(=O)N[C@@H](C)C(=O)O — apparent skin permeability (no effect; Sprague-Dawley rat, excised skin; 50 µmol/L, 37 °C, FAM-labelled CPP conjugate; relative to: free FAM): no effect
N[C@@]1(c2ccccc2Cl)CCC[C@@H](O)C1=O — brain concentration (female CD-1 mice, brain; intravenous, 50 mg/kg, 10 min): 19.8 µg/g
Cc1ncc2n1-c1ccc(Cl)cc1C(c1ccccc1F)=NC2 — t1/2 (healthy volunteers, plasma; oral, 7.5 mg single dose, day 1, geometric mean, alone): 309 min
COc1ccc2c(c1)[C@]13CCCC[C@@H]1[C@H](C2)N(C)CC3 — AUC(0-t) (Wistar rat, both sexes, plasma; oral, 5 mg/kg, 2 h after pretreatment, added: single TCE 400 mg/kg): 149 ± 25.8 ng·h/mL
C#Cc1ccc2c(c1)C(c1ccccc1F)=N[C@@H](C)c1c(C(=O)OCCC)ncn1-2 — compound remaining (metabolic stability; human, liver microsomes; 30 min): < 5%
O=C(O)c1nn(Cc2ccc(Cl)cc2Cl)c2ccccc12 — EC20 (cytochrome c release, ELISA; BALB/cByJ female mouse liver mitochondria; 30 min; relative to: alamethicin maximal release): > 800 µM
C[C@]12CC[C@H]3[C@@H](CCC4=CC(=O)CC[C@@]43C)[C@@H]1CC[C@@H]2O — share of total drug-related species (eugonadal men, pooled serum; before dosing, baseline): 8.6%
Cc1ncc2n1-c1ccc(Cl)cc1C(c1ccccc1F)=NC2 — Tmax (human CYP3A5*1/*3 and *1/*6, serum; oral, median, added: ketoconazole 200 mg): 1 h
C[C@H]1CNCCc2ccc(Cl)cc21 — AUC(0-inf) (male Sprague-Dawley rat, plasma; subcutaneous, 3 mg/kg, single dose): 199 ng·h/mL

Some of these lines once more:
N[C@@]1(c2ccccc2Cl)CCC[C@@H](O)C1=O — brain concentration (female CD-1 mice, brain; intravenous, 50 mg/kg, 10 min): 19.8 µg/g
C[C@]12CC[C@H]3[C@@H](CCC4=CC(=O)CC[C@@]43C)[C@@H]1CC[C@@H]2O — share of total drug-related species (eugonadal men, pooled serum; before dosing, baseline): 8.6%
